Experimental data collected from several papers.
Protocols differ between the studies behind these lines. Numbers after ± are the reported error.
Cell line: MDA-MB-231

COc1cccc(Oc2ccccc2NC(=O)CNC(=O)c2cccc3ccccc23)c1 gave a GI50 of 0.776 µM (SRB; 48 h).
COc1ccc(OC)c(-c2nc3ccc(-c4nc5ccc(N6CCN(C)CC6)cc5[nH]4)cc3[nH]2)c1 gave a growth percent of 122% (SRB; 10 µM, 48 h).
O=C(NCc1ccc(CNS(=O)(=O)c2ccc3c(c2)CCO3)cc1)c1scc2c1OCCO2 gave an inhibition of over 60% (Matrigel invasion; 0.1 µM, 22 h, together with: CXCL12α 200 ng/mL).
The selectivity index of Cc1cc(NS(=O)(=O)c2ccc(NC(=O)/C(C#N)=C/c3ccc(N4CCOCC4)cc3)cc2)no1 is reported as over 2.4 (cytotoxicity, MTT; relative to: HSF over MDA-MB-231 IC50).
OCc1ccc(Nc2ccc3c(Nc4cccc(C(F)(F)F)c4)ncnc3c2)cc1: “S phase cells” 65.9% (IC50, 24 h).
COc1c(C)c(OS(=O)(=O)c2ccc3ccccc3c2)c(C)c(O)c1C(=O)/C=C/c1ccccc1 gave a selectivity index of 0.76 (relative to: CL over MDA-MB-231).
Nc1ccccc1NC(=O)c1ccc(CNc2ccc(NC3=C(Cl)C(=O)c4cccnc4C3=O)cc2)cc1 gave a necrotic cells of 0.39% (annexin V/PI staining, refers to: annexin V-/PI+; 8 µM, 72 h).
The selectivity index of Cc1cc(NS(=O)(=O)c2ccc(NC(=O)/C(C#N)=C/c3ccncc3)cc2)no1 is reported as over 1.72 (cytotoxicity, MTT; relative to: HSF over MDA-MB-231 IC50).
With C#C[C@@]1(O)[C@@H](CO)O[C@@H](n2cc(I)c3c(N)ncnc32)[C@@H]1O the TGI was over 100 µM (cell growth, SRB).
The growth percent of CCCCN1CCN(c2ccc3[nH]c(-c4ccc5[nH]c(-c6cc(OC)c(OC)c(OC)c6)nc5c4)nc3c2)CC1 is reported as 78.9% (SRB; 10 µM, 48 h).
For C=CCn1c(=O)c2cnc(Nc3ccc(N4CCN(C)CC4)cc3)nc2n1-c1ccc2c(n1)[C@@](O)(CC)CC2, “G1 phase mitotic cells” read 0.39% (flow cytometry; concentration not given).
CCCCCCCCCCCCCCCc1cccc(O)c1C(=O)O — result for “cell cycle progression”: “no effect” (flow cytometry; 10 µM, 24 h).
C=CCNC(=S)NNC(=O)COc1ccc2c(C)c(CC)c(=O)oc2c1C has an IC50 of 93.9 µg/mL (MTT).
CCCC(=O)Oc1c(C)c(O)c(C(=O)/C=C/c2ccccc2)c(OC)c1C has a selectivity index of 0.86 (relative to: CL over MDA-MB-231).
Under antiproliferative activity, CC(C)(C)OC(=O)N1CCC(Oc2ccc(Cl)cc2C(=O)N[C@@H](Cc2ccccc2)C(=O)Nc2cc(C(F)(F)F)cc(C(F)(F)F)c2)CC1 is recorded as “inactive” (up to 10 µM, 72 h).
For CO[C@H]1[C@H](O[C@H]([C@H]2O[C@@H](n3ccc(=O)[nH]c3=O)[C@H](O)[C@@H]2O)[C@H](NCCCNC(=O)[C@@H](NC(=O)[C@@H](NC(=O)N[C@H](C(=O)O)C(C)C)[C@@H]2CCN=C(N)N2)[C@@H](OC(=O)CCCCCCCCCCCCN(O)C(=N)N)C(C)C)C(=O)O)O[C@H](CN)[C@H]1O, the cell migration was under 45% (Boyden chamber; 0.4 µM, 24 h; relative to: untreated).
The viability of O=P(O)(O)C(O)(Cn1ccnc1)P(=O)(O)O is reported as 98 ± 2% (AlamarBlue; 1.9 µM, 24 h; relative to: control).
For Cc1c(Cc2ccccc2)c(=O)oc2c(C)c(OCC(=O)NN=Cc3ccc(Cl)cc3)ccc12, the IC50 was 78.5 µM (cell viability, MTT).
For CC(C)[C@H](NC(=O)c1cc(Cl)ccc1OCCNC(=O)OC(C)(C)C)C(=O)Nc1ccc([N+](=O)[O-])cc1Cl, Bax activation read “increased” (Western blot; 1, 5, 10 µM, 48 h).
Under H3K4me3 level, COC(=O)CNC(=O)C(=O)OC is recorded as “increased” (immunoblot; concentration not given, 12 h).
For CCn1c2ccccc2c2cc(-n3nncc3-c3ccccc3)ccc21, the detached cells was 20 to 42% (concentration not given, 24 h).
COc1cc(C2C3=C(COC3=O)N(CCO)c3cc4c(cc32)CCC4)cc(OC)c1OC (centres unmarked) — result for clonogenic growth: “inhibited” (colony formation; 0.1 to 0.5 µM, 6 to 10 days).
For CCOc1ccc2c(C)c(CC)c(=O)oc2c1C, the IC50 was 765 µM (cell viability, MTT).
Cc1nc(Nc2ncc(C(=O)Nc3c(C)cccc3Cl)s2)cc(N2CCN(CCO)CC2)n1 gave a GI50 of 0.012 ± 0.004 µM (3D cell culture).
For C[C@@H]1CC[C@@H]([C@](O)(CNCc2ccc(F)cc2)COCc2ccc(F)cc2)[C@H](OCc2ccc(F)cc2)C1, the IC50 was 1.79 µM (cell growth, inhibitor, MTT; 72 h).
C=C1CN(S(=O)(=O)c2ccc(OC)cc2)CCCN(CC2CCCCC2)CCCN(S(=O)(=O)c2ccc(N(C)C)cc2)C1.Cl: mammosphere formation “inhibited” (1 µM, 48 h, together with: progranulin 1 µg/mL).
C=CCOc1c(C)c(O)c(C(=O)/C=C/c2ccccc2)c(OC)c1C gave a selectivity index of 0.81 (relative to: CL over MDA-MB-231).
For CCCC(CCC)C(=O)OCc1cn(-c2c3ccccc3nc3ccccc23)nn1, the growth percentage was 89.7% (NCI60 single dose screen; 10 µM).
The growth percent of CCCCN1CCN(c2ccc3[nH]c(-c4ccc5[nH]c(-c6ccc(OCC)c(OCC)c6)nc5c4)nc3c2)CC1 is reported as -81.2% (SRB; 10 µM, 48 h).
The growth percentage of O=c1ccn(Cc2cn(-c3c4ccccc4nc4ccccc34)nn2)c(=O)[nH]1 is reported as 89.4% (NCI60 single dose screen; 10 µM).
With O=C1C[C@@H](c2ccc(O)cc2)Oc2cc(O)cc(O)c21 the apoptotic cells was 19.3% (annexin V/PI; concentration not given, 48 h).
Under antiproliferative activity, CC(C)(C)OC(=O)NCCOc1ccc(Cl)cc1C(=O)N[C@@H](Cc1ccccc1)C(=O)Nc1ccc([N+](=O)[O-])cc1Cl is recorded as “inactive” (up to 10 µM, 72 h).
O=C(/C=C/C=C/C=C/C1CCCCC1)NC1=C[C@@](O)(/C=C/C=C/C=C/C(=O)NC2=C(O)CCC2=O)[C@@H]2O[C@@H]2C1=O gave a GI50 of 15 µM (cell growth, CellTiter-Glo; 78 h).
With CCCNC(=O)[C@H]1O[C@@H]1C(=O)N[C@H](C(=O)N1CCC[C@H]1C(=O)OC)[C@@H](C)CC the EC50 was over 100 µM (cell viability, MTT; concentration not given, 4 h, irradiated 15 min up to 470 nm).
With Cc1ccc(CNC(=O)Cn2cc(CSc3nc4ccccc4[nH]3)nn2)cc1 the viability was 6.32% (MTT; 500 ppm).
CCOc1ccc(-c2nc3cc(-c4nc5cc(N6CCN(C)CC6)ccc5[nH]4)ccc3[nH]2)cc1OCC has a growth percent of 19.4% (SRB; 10 µM, 48 h).
The EC50 of CCn1cc(-c2cc(Cn3ccnc3)cc3c2CCN([C@H](c2cc(OC)ccn2)C2CC2)C3=O)c(C(F)(F)F)n1 is reported as over 30 µM (cell growth, inhibitor; 120 h).
Cc1[nH]c2ccccc2c1C1=C(Cl)C(=O)C(Cl)=C(N2CCOCC2)C1=O — result for “mitochondrial membrane potential”: “decreased” (JC-1; 0.1 and 1 µM, 24 h).

Some of these lines once more:
The viability of O=P(O)(O)C(O)(Cn1ccnc1)P(=O)(O)O is reported as 98 ± 2% (AlamarBlue; 1.9 µM, 24 h; relative to: control).
O=C(/C=C/C=C/C=C/C1CCCCC1)NC1=C[C@@](O)(/C=C/C=C/C=C/C(=O)NC2=C(O)CCC2=O)[C@@H]2O[C@@H]2C1=O gave a GI50 of 15 µM (cell growth, CellTiter-Glo; 78 h).
